Assay results from different studies.
Numbered parts are unrelated; each lists some results of a single study.

Series 1
Target: Histone acetyltransferase KAT6A, winged helix 2, GST fusion (KAT6A, Homo sapiens, UniProt Q92794, residues 85-181)
Technique: protein binding microarray
Form: double-stranded DNA, one strand shown
Medium: in vitro
Concentration: not given
Setting: 8-mer, flanks averaged, mean of 2 arrays, mostly near background
Baseline: not given
Reading: higher = stronger binding
Endpoint: E-score
Construct (chain): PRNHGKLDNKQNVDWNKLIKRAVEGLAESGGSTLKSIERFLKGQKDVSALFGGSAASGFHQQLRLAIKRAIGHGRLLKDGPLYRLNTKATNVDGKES
AGGTTATA: -0.206
GAGGCCAC: 0.0348
ACTGCGGG: 0.244
AACCCACG: -0.0685
AGGTAAAG: -0.0995
GGACATAA: -0.000455
ACCACCCA: -0.0513
AGCGATGA: 0.154
TAAAGCAA: 0.062
AATTGTAG: -0.0872
GTTAGACA: 0.0771
CGAGAACG: 0.0548
AAAGCGAG: 0.151
AGTTCCGA: -0.0013
GAGGAAGA: -0.0201
CATCGGGA: 0.211
AAACATCG: -0.0748
ATTTCGTG: 0.147
CACGTGTC: -0.253
CCGTCAAG: 0.062
TCCAGTAA: -0.177
CACAGCAG: 0.167
GCCCGGGA: 0.265

Series 2
Target: RING finger protein unkempt homolog, zinc fingers 1-6, GST-SBP tag (UNK, Homo sapiens, UniProt Q9C0B0, residues 30-357)
Chain of UniProt Q9C0B0 (30-357, looked up): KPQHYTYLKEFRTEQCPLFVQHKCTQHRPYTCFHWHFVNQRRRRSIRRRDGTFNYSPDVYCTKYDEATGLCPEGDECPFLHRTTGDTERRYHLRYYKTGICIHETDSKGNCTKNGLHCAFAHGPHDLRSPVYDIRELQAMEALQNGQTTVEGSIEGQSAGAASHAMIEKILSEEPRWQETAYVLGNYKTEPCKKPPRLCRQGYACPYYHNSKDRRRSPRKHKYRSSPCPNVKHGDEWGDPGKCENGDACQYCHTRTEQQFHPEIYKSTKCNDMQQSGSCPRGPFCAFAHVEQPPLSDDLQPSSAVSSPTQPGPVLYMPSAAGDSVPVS
Technique: RNA Bind-n-Seq
Form: RNA
Medium: in vitro
Concentration: not given
Setting: RNA with constant flanks, ends assumed
Baseline: input RNA pool
Reading: higher = stronger binding
Endpoint: bound/input enrichment
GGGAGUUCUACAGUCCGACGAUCAAGGAAAUGCUGGCCGCAAACCCUCAGGAUCGCCCUGAUGCUUUUGAACUAGAACUCAGAUCCGUCCAAAUUGCAUUUAAAGACAGCAGCUGGGAGACGUGACCUACUGCUUGCAAGCAUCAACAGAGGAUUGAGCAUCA: 0.136 ratio
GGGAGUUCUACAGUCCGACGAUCCUACCCAGCCCUCUUCUUGUUUGUAUUUGUUUAGGGUUGUGAGGUUGUGUAAAAUAGUACCCGCUUCUUACUUGAGAACUACAGUUUCUGCUUAUCAUUUAUUCUUCCUUGUGGCACUUACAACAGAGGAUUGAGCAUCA: 0.408 ratio
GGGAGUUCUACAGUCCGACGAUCAAUUCAUCUAAAGAUGUCUCUGGUGAUUUUUAUAUGUUCCGCUAUAUAAUUGAUGCUUUACCGUUUUAUCAUAAUCCAACAACUUCAGUUAUAUUUAAUUAUUGUUAAGGAGUUUAAGACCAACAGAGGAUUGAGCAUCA: 0.396 ratio
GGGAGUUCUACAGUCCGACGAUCAAGCAACACUAAGCAUUCAUAAGUUAACCCAUGGUAAAGAGUGUUUUUCUGAAACUUUUUUUCCGUAAGAUGGUUUUUCAGCAAAUGGCAUUCCCAAGAUAAAGCUGUUGUGCUUUAACUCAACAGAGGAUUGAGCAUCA: 0.15 ratio
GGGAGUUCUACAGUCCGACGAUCUCACCGAACUGCAGCACCCAGGCGUCGCUUUCUGCGGAGCUCUGCUUGCCAGUCAGCGAGCCGCACUCCUUGGAGAGCAAGUUGAACCCUUCGGCCUUGACCUCCGCCACCCGAUUGGGGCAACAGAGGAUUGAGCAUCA: 0.0583 ratio

Series 3
Target: Interferon regulatory factor 5, full length, phosphomimetic (IRF5, Homo sapiens, UniProt Q13568-2, residues 1-514, K96S/S451D/S453D/S456D/S462D)
Technique: protein-binding microarray
Form: double-stranded DNA, one strand shown
Medium: in vitro
Concentration: 250 nM
Setting: 60-bp whole probe
With: salmon DNA 0.4 mg/ml
Baseline: random background probes
Reading: higher = stronger binding
Endpoint: log fluorescence
Shared flanks, not repeated: GCCTAGCAC … GTCTTGATTCGCTTGACGCTGCTG
TTAGATCTCAGACTCGATTAGTGCTAG: -0.315 z-score
GACGATTTCATTTCCGAGACGTGCTAG: 1.19 z-score
AGACCATCCTGTATGGATGTGTGCTAG: -0.575 z-score
CTAGGTCTCCTACTGCTTTAGTGCTAG: -0.495 z-score
TTAGATATCAGTCTTGATTAGTGCTAG: 1.25 z-score
CTGCAGGTAGCAGAGACTTGGTGCTAG: -0.435 z-score
TCATTTTTTTTTTCTGAACTGTGCTAG: 1.53 z-score
TCACATATAATTTTGTCATCGTGCTAG: 0.716 z-score
GACGGTATCGGGTCTCGGGACGTGCTA: 2.03 z-score
TCAATTCTGCTTTGCAAACTGTGCTAG: 0.587 z-score
TTAGATTTCAGTTTCGATGAGTGCTAG: 10 z-score
TTAGTTATCGACACTGGGTTAGTGCTA: 2.41 z-score
GACGGACTGGACACCGGGGACGTGCTA: -0.775 z-score
AACGATTTCAGACTGGAGACGTGCTAG: 0.366 z-score
TTAGGTATCGGGTATCGGTTCGTGCTA: 5.96 z-score
TTAGATTTCAATATCGATTAGTGCTAG: 6.29 z-score
GACGAACTGGGGTATCGCGACGTGCTA: -0.464 z-score
CTATGTCTGTTTTTGCTTTCGTGCTAG: 2.62 z-score
GACGGTATGGACACTGGGGACGTGCTA: -0.0786 z-score

Series 4
Target: RNA binding protein fox-1 homolog 2, RRM domain, GST-SBP tag (RBFOX2, Homo sapiens, UniProt O43251-10, residues 100-194)
Technique: RNA Bind-n-Seq
Form: RNA
Medium: in vitro
Concentration: 365 nM
Setting: natural RNA segment, single round, ends assumed
Baseline: no-protein control
Reading: higher = stronger binding
Endpoint: RBNS enrichment (R)
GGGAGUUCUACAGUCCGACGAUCCUAGACCCUCUUCCCACCUACUAUGGCAUUGCAUAUUAGUCUGUUGAGACAUUCAUUGUUGCUUGACUGACAUUUUGGUCUGGGUUUUCUUUUAAUAUUUUAUUUUAAUUUGGAAUUCUCGGGUGCCAA: 0.57
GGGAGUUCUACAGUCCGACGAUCAAAACGAUGCCUGCAAAAUUUGAAGGAAUGCAAUUCUGAUUUGCCAUUUAUCAGGGAAAACUGAAAGCAUUUUUCUUAUAACUUUUUUUCUUUUUCUUUUUUUUUGGAGGUGGAAUUCUCGGGUGCCAA: 1.16
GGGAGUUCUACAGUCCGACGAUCACCCUUAGGCUCCAAAAAUUUGCCUGCCUUUGAGAGAACAACAAACAGGUCUUUUCUCUCUCCUUUAUGGUACUUCUCAGAACAAGAGAAACUGAGUUAGGGCUUGAGUCUGGAAUUCUCGGGUGCCAA: 0.738
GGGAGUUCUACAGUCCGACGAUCAUGAGAUCACAUACUUUUUAAAUCCAAAUACAAAAGCAUAGUCUCUGCAAGAUUUUGUUCUUUGAAUUUCUUGAUAUUGUAAUUGAUUAUUGAUAACUGUCAUCAUGAAAUGGAAUUCUCGGGUGCCAA: 0.448
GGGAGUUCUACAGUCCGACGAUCUAGAUGGCGAACUUGAUGAAAAGUAUAAGAAGGUAGAAAGUUUAAUUGCCCAAAAAACUGAAGAGUCAGCAGAUGCCAGGAGGAAAGCUGAGCUGCUACAAAAUGAAGCAUGGAAUUCUCGGGUGCCAA: 2.55
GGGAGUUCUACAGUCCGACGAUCAGCGGCCAUUUAUGUUCAUGUUCACAGGAAGGUCUUCUGCUGCUCCAUCCUAGACCUGCCCCAGUGCCCAGCAGUCACCCUUCCCCUCUAGCUACAGAGUCCAGGCCACUUGGAAUUCUCGGGUGCCAA: 0.508
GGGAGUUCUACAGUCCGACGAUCUAUGUGUAUGUACACAUGUGUAUGUACACACACACACACACCUGCCAUACACUUUAGAAGAACGCUUCUCUUCUAUUCCAAUAAAAAGUCCUUUUAGCAAUGCAACAUAUUGGAAUUCUCGGGUGCCAA: 0.503
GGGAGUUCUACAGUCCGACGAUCUGUGAUACAAGCCCCAGGACACCCCCACCCAAAGAGCCAAAGAAUAGUUCCCGCGACAUUCCGCCUUCCUCCGUUAGCCCCUUGGUAAUCCACCACCAAGCCUGGGGACUUGGAAUUCUCGGGUGCCAA: 0.641

Series 5
Target: PABPC1L2, full length, GST fusion (mouse, UniProt A0ABA7IW68)
Technique: RNAcompete
Form: RNA
Medium: in vitro
Concentration: 20 nM
Setting: 7-mer, probes averaged, single round
Baseline: mean of 7-mers
Reading: higher = stronger binding
Endpoint: 7-mer Z-score
Target sequence (chain): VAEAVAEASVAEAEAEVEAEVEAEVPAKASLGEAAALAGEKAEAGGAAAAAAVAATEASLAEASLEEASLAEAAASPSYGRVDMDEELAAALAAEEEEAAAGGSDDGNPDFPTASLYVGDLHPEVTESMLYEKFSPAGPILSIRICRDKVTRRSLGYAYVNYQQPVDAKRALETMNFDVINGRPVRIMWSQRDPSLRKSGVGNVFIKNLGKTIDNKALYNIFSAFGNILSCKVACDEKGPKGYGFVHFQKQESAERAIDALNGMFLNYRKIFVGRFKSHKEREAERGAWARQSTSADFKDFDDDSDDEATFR
ACCCGCC: -0.485
AACAUAG: 0.436
AUUACCA: -0.104
GGUCAUU: -0.0319
CGUUACU: -0.296
ACCGAAC: -0.151
CUCCCCU: -0.306
ACAUCGA: 0.18
AAAUUUG: 1.88
CUAAUGA: -0.117
AAAUACU: 1.37
AAUCUCU: -0.186
UACCAGC: -0.349
UUCGGCA: -0.159
ACGGCGU: -0.199
AGUGUCC: -0.124
AGACCAC: -0.269
GAGGCCU: -0.139
CGGGGAA: 0.26
CGUACUG: -0.157
GGCCCGG: -0.173
AAGUGUU: 0.0406
UCCAUUG: -0.248
GCGGCUG: -0.0808
UUCCAUU: -0.233

For quick reference, copied from above (series 4):
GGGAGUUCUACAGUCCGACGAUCCUAGACCCUCUUCCCACCUACUAUGGCAUUGCAUAUUAGUCUGUUGAGACAUUCAUUGUUGCUUGACUGACAUUUUGGUCUGGGUUUUCUUUUAAUAUUUUAUUUUAAUUUGGAAUUCUCGGGUGCCAA: 0.57
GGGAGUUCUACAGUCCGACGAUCAAAACGAUGCCUGCAAAAUUUGAAGGAAUGCAAUUCUGAUUUGCCAUUUAUCAGGGAAAACUGAAAGCAUUUUUCUUAUAACUUUUUUUCUUUUUCUUUUUUUUUGGAGGUGGAAUUCUCGGGUGCCAA: 1.16
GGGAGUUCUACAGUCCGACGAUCACCCUUAGGCUCCAAAAAUUUGCCUGCCUUUGAGAGAACAACAAACAGGUCUUUUCUCUCUCCUUUAUGGUACUUCUCAGAACAAGAGAAACUGAGUUAGGGCUUGAGUCUGGAAUUCUCGGGUGCCAA: 0.738
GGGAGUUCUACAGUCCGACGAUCAUGAGAUCACAUACUUUUUAAAUCCAAAUACAAAAGCAUAGUCUCUGCAAGAUUUUGUUCUUUGAAUUUCUUGAUAUUGUAAUUGAUUAUUGAUAACUGUCAUCAUGAAAUGGAAUUCUCGGGUGCCAA: 0.448
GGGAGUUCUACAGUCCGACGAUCUAGAUGGCGAACUUGAUGAAAAGUAUAAGAAGGUAGAAAGUUUAAUUGCCCAAAAAACUGAAGAGUCAGCAGAUGCCAGGAGGAAAGCUGAGCUGCUACAAAAUGAAGCAUGGAAUUCUCGGGUGCCAA: 2.55
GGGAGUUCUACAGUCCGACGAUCAGCGGCCAUUUAUGUUCAUGUUCACAGGAAGGUCUUCUGCUGCUCCAUCCUAGACCUGCCCCAGUGCCCAGCAGUCACCCUUCCCCUCUAGCUACAGAGUCCAGGCCACUUGGAAUUCUCGGGUGCCAA: 0.508
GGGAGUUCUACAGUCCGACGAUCUAUGUGUAUGUACACAUGUGUAUGUACACACACACACACACCUGCCAUACACUUUAGAAGAACGCUUCUCUUCUAUUCCAAUAAAAAGUCCUUUUAGCAAUGCAACAUAUUGGAAUUCUCGGGUGCCAA: 0.503
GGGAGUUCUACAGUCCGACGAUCUGUGAUACAAGCCCCAGGACACCCCCACCCAAAGAGCCAAAGAAUAGUUCCCGCGACAUUCCGCCUUCCUCCGUUAGCCCCUUGGUAAUCCACCACCAAGCCUGGGGACUUGGAAUUCUCGGGUGCCAA: 0.641
